Experimental data pooled from the literature.
Every numbered part comes from another study and shows a few of its results, in no order.

Set 1 — technique: protein binding microarray; form: double-stranded DNA, one strand shown; sample: in vitro; concentration: not given; baseline: not given; reading: higher = stronger binding
Target: Histone acetyltransferase KAT6A, winged helix 1, GST fusion (KAT6A, Homo sapiens, UniProt Q92794, residues 1-85)
Setting: 8-mer, flanks averaged, mean of 2 arrays, mostly near background
Target sequence (chain): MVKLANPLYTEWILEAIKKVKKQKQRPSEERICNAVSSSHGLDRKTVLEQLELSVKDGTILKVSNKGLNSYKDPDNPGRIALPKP
| Oligonucleotide | E-score |
| --- | --- |
| CGCTAGGC | 0.199 |
| AACTTAAG | -0.0464 |
| CATCATCA | -0.165 |
| ATTTGGGA | -0.28 |
| CATAAATC | -0.0313 |
| ATGTGCAC | -0.0284 |
| AATTGCGC | 0.356 |
| AAGGTCCC | -0.0556 |

Set 2 — technique: universal PBM; form: double-stranded DNA, one strand shown; sample: in vitro; concentration: 600 nM; reading: higher = stronger binding
Target: Sal-like protein 4, full length isoform A (SALL4, Homo sapiens, UniProt Q9UJQ4, residues 1-1053)
Sequence of UniProt Q9UJQ4 (whole entry, looked up): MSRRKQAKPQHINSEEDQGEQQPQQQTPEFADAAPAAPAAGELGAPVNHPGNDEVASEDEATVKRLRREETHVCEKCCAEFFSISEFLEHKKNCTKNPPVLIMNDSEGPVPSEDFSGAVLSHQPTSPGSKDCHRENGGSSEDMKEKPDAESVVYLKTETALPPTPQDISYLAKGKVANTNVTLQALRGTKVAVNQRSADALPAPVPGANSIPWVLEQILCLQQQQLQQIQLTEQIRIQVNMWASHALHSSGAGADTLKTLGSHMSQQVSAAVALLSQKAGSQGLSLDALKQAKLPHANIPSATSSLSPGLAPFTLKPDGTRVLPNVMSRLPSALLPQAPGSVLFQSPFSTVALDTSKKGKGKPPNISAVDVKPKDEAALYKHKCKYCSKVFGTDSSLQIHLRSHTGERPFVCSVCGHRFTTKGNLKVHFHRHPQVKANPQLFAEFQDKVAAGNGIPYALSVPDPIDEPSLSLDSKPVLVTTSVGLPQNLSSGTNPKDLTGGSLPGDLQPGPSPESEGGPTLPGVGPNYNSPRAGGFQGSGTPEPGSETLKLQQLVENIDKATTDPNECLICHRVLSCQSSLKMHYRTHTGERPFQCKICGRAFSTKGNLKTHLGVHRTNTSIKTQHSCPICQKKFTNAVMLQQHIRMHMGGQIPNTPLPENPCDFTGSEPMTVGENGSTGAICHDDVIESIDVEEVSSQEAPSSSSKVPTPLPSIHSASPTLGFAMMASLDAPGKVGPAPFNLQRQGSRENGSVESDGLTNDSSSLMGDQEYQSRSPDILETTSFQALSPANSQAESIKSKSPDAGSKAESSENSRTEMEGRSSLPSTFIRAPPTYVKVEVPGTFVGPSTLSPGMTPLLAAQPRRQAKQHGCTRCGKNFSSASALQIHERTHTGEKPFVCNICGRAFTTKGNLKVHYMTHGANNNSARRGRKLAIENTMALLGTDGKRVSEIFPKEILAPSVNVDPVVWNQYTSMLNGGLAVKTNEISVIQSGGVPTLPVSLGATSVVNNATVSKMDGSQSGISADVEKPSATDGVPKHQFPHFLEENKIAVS
Setting: 8-mer, flanks averaged, mean of replicates
| Oligonucleotide | E-score |
| --- | --- |
| ACATGTGC | -0.00908 |
| CACTCTTC | 0.01 |
| ACTTTAGC | 0.144 |
| AAAGTCGA | -0.0662 |
| ATTATCTC | 0.293 |
| ACAAATCG | 0.013 |
| TCACTTAA | 0.226 |
| ACAACTAA | 0.215 |

Set 3 — cell line: HEK-293T; read-out: pseudovirus infection; organism: VSV pseudotyped with SARS-CoV-2 spike; concentration: 10 µM; time: 16 h; baseline: vehicle-treated
| SMILES | GFP-positive cells |
| --- | --- |
| O=C1CC[C@@]2(O)[C@H]3Cc4ccc(O)c5c4[C@@]2(CCN3CC2CC2)[C@H]1O5 | 76.4% |
| CNCC(O)c1ccc(OC(=O)C(C)(C)C)c(OC(=O)C(C)(C)C)c1 (centres unmarked) | 61.3% |
| Cc1ccc(Nc2nccc(N(C)c3ccc4c(C)n(C)nc4c3)n2)cc1S(N)(=O)=O | 118% |
| O=C(O[C@H]1CN2CCC1CC2)N1CCc2ccccc2[C@@H]1c1ccccc1 | 29.3% |

Set 4 — mode: inhibitor; concentration: 20 µM
Target: Replicase polyprotein 1ab, nsp13 helicase (rep, Severe acute respiratory syndrome coronavirus 2, UniProt P0DTD1)
| SMILES | inhibition |
| --- | --- |
| COc1ccc2ccc(=O)oc2c1CC=C(C)C | 13.5% |
| CN(C)[C@@H]1CCc2[nH]c3ccc(NC(=O)c4ccc(F)cc4)cc3c2C1 | 1.49% |
| C[C@@H](O)[C@H]1C(=O)N2C(C(=O)O)=C(S[C@@H]3CN[C@H](C(=O)N(C)C)C3)[C@H](C)[C@H]12 | 4.56% |
| CN(C)CCCSC(=N)N | -2.69% |
| NC(=O)c1ccc(F)c2c1C[C@@H](N(C1CCC1)C1CCC1)CO2 | 5.32% |
| Oc1ccc(OCc2ccccc2)cc1 | 2.83% |
| Oc1c(I)cc(I)c(O)c1I | 100% |
| O=C(NCCCCN1CCN(c2cccc(Cl)c2Cl)CC1)c1ccc2c(c1)Cc1ccccc1-2 | -4.12% |
| NS(=O)(=O)c1ccc(S(=O)(=O)Nc2cccc3c(Cl)c[nH]c23)cc1 | 0.64% |
| O=C(Nc1c[nH]nc1-c1nc2ccc(CN3CCOCC3)cc2[nH]1)NC1CC1 | 5.92% |
| CC[C@H](C)n1cc(C)c2c(C(=O)NCc3c(C)cc(C)[nH]c3=O)cc(-c3ccc(N4CCNCC4)nc3)cc21 | 6.27% |
| COc1ccc(-c2coc3cc(O)ccc3c2=O)cc1 | 1.33% |
| C[C@@H](O)[C@H]1C(=O)N2C(C(=O)O)=C(S[C@@H]3CN[C@H](C(=O)Nc4cccc(C(=O)O)c4)C3)[C@H](C)[C@H]12 | 57% |
| CC(C)C(=O)SCCCCC[C@H](NC(=O)OC(C)(C)C)C(=O)NC12CC3CC(CC(C3)C1)C2 | 2.82% |
| O[C@H]1[C@H]2[C@H](O)CCCN2C[C@H]1O | -0.69% |
| O=C1C[C@@H](c2ccc(O)cc2)Oc2cc(O)ccc21 | 0.32% |
| COc1ccc2[nH]cc(C3=CCNCC3)c2c1 | 9.16% |
| CCCCCCCCN[C@@H](C)[C@H](O)c1ccc(SC(C)C)cc1 (racemic) | 4.68% |
| CNC(=O)c1c(F)cccc1Nc1nc(Nc2cc3c(ccn3C(=O)CN(C)C)cc2OC)nc2[nH]ccc12 | 14.9% |
| CNC[C@H](O)c1cccc(O)c1 | 0.38% |

Mixed results
| Compound | target | read-out | mode | concentration | setting | endpoint | value |
| --- | --- | --- | --- | --- | --- | --- | --- |
| CC(C)c1cc(CNc2nc(Nc3cc(C4CC4)[nH]n3)cc(N3CCN(C)CC3)n2)on1 | Replicase polyprotein 1ab, main protease (rep, Severe acute respiratory syndrome coronavirus 2, UniProt P0DTD1) | enzyme activity | inhibitor | 20 µM | hit confirmation, no DTT | inhibition | 99.2% |

Excerpt of the above (set 3):
| SMILES | GFP-positive cells |
| --- | --- |
| CNCC(O)c1ccc(OC(=O)C(C)(C)C)c(OC(=O)C(C)(C)C)c1 (centres unmarked) | 61.3% |
| Cc1ccc(Nc2nccc(N(C)c3ccc4c(C)n(C)nc4c3)n2)cc1S(N)(=O)=O | 118% |
